# Measured values from different studies.
# Every numbered part comes from another study and shows a few of its results, in no order.

# Block 1 — observed: enzyme activity; action: inhibitor; concentration: 20 µM
# Target: Replicase polyprotein 1ab, polymerase (rep, Severe acute respiratory syndrome coronavirus 2, UniProt P0DTD1)
Structure (SMILES),inhibition [%]
O=C1c2ccc(Nc3ccc(F)cc3F)cc2CCc2ccc(OC[C@H](O)CO)cc21,10
O=[N+]([O-])c1cc(Cl)ccc1S(=O)(=O)N1CCN(Cc2ccccc2)CC1,2.75
Cc1sc(N)c(C(=O)c2cccc(C(F)(F)F)c2)c1C,4.01
O=C(Nc1cc(C(F)(F)F)ccc1N1CCCCC1)c1ccncc1,-0.1
c1ccc(-c2ccc(CNc3nc(-c4ccccn4)nnc3-c3ccccc3)cc2)cc1,3.78
Cc1cccc(-c2[nH]ncc2-c2ccc(F)c(-c3cnn(CCO)c3)c2)n1,4.68
O=C(O)CNC(=O)c1nc(Cl)c2ccccc2c1O,-3.89
C=C1/C(=C\C=C2/CCC[C@]3(C)[C@@H]([C@H](C)/C=C/[C@H](C)C(C)(C)O)CC[C@@H]23)C[C@@H](O)C[C@@H]1O,-0.98
CN1CCN(C(=O)C2C(C(=O)O)[C@H]3CC[C@@H]2O3)CC1 (stereo partly drawn),-2.16
CCOC(=O)[C@@H](N)Cc1ccc(-c2cc(O[C@H](c3ccc(Cl)cc3-n3ccc(C)n3)C(F)(F)F)nc(N)n2)cc1,-0.03
CC(O)CCCCn1c(=O)c2c(ncn2C)n(C)c1=O (racemic),-1.79
O=C(O)[C@H]1O[C@H](O)[C@H](O)[C@@H](O)[C@@H]1O,1.97
OC[C@H]1O[C@@H](n2cnc3c(NC4CCCC4)ncnc32)[C@H](O)[C@@H]1O,1.93
CC(=O)Nc1ccc(S(=O)(=O)Nc2ccc([N+](=O)[O-])cc2)cc1,-3.88
NS(=O)(=O)c1cc(C2(O)NC(=O)c3ccccc32)ccc1Cl (stereo not drawn),1.97
CCOC(=O)c1cc(C#N)c(N2CCC(C(=O)NS(=O)(=O)Cc3ccccc3)CC2)nc1C,-0.11
C=Cc1cc(O)cc2nc(-c3ccc(O)c(F)c3)oc12,6.89
Clc1ccc(Nc2nnc(Cc3ccncc3)c3ccccc23)cc1,1.8
COC(=O)[C@@H]1[C@H]2C[C@H]3c4[nH]c5ccccc5c4CCN3C[C@@H]2CC[C@@H]1O,4.17
O=C(Nc1ccc(Cl)cc1)Nc1ccc(Cl)c(Cl)c1,0.43
Nc1nnc(Sc2ncc([N+](=O)[O-])s2)s1,-12.2
Nc1ccc(C(=O)O)cc1,7.43
CN1CCOC(c2ccccc2)c2ccccc2C1 (stereo not drawn),14.8
COC(=O)CCC(=O)CN,-0.48
O=C(O)c1ccccc1NC(=O)N1CCC(c2ccccc2C(F)(F)F)CC1,-3.45

# Block 2 — method: protein-binding microarray; molecule type: double-stranded DNA, one strand shown; matrix: in vitro; concentration: 940 nM top; setting: 60-bp whole probe; with: salmon DNA 0.4 mg/ml; relative to: random background probes; direction: higher = stronger binding; constant ends, left off below: GCCTAGCAC … GTCTTGATTCGCTTGACGCTGCTG
# Target: Interferon regulatory factor 5, full length, phosphomimetic (IRF5, Homo sapiens, UniProt Q13568-2, residues 1-514, S451D/S453D/S456D/S462D)
Sequence,fitted relative affinity [z-score]
TTAGGACTGCGTCTCCTTTAGTGCTAG,-0.298
TTGGGTTTCGGTATCGGTTAGTGCTAG,13.9
TTAGGTTTCCTTTTCCATTAGTGCTAG,2.65
GACCGTATCGACACTGGGGACGTGCTA,1.69
TGTCATATACACATCTTCTGGTGCTAG,0.587
TTAGATTTCAGTCTCGATGAGTGCTAG,2.92
TCCCCTCTCTTTCCAACTCTGTGCTAG,1.12
CAAGTTTTTATTTTCTGAATGTGCTAG,1.24

# Block 3 — method: RNA Bind-n-Seq; molecule type: RNA; matrix: in vitro; concentration: 365 nM; relative to: no-protein control; direction: higher = stronger binding
# Target: RNA binding protein fox-1 homolog 2, RRM domain, GST-SBP tag (RBFOX2, Homo sapiens, UniProt O43251-10, residues 100-194)
# Setting: natural RNA segment, single round, ends assumed
# Constant ends, left off below: GGGAGUUCUACAGUCCGACGAUC … UGGAAUUCUCGGGUGCCAA
# Target sequence (chain): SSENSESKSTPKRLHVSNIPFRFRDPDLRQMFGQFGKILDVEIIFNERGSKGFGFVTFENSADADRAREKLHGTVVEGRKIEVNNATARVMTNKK
Sequence,RBNS enrichment (R)
CAGGUAGCAGUAAUAGAAAACAACCUCACACCAUUUUCACAAUGGCCGCCCAUCCUCGGGGACUGUGAGUGUCCUUGUCUUAGUCAAAGCACAUCUCCUACCAAAAUUGC,0.412
UAAAAUCAUUACAAUAAAAACCCAAAUUGGAACUAUCUCCUCCCUUUACCCCUUUCCCUUAAUUCCUAUUCUGAUGACACUUUGGACAUGAAUUCAAGGGGCAGAUGAAU,0.457
UGGGAAAAGACCAGGGCUUUUCCCAGGAAUAUCCCAAACUUCGGAAACAAGUUAUUCUCUUCACUCCCAAUAACUAAUGCUAAGAAAUGCUGAAAAUCAAAGUAAAAAAU,0.706
UUGGAAUGAAAAUACUUCUUGCACUUAAACACUGCACAUGCCGUACUUUGAGGUUAGUCUGAAUCUUGAACUUUAAUACCAAAUUAAUUUUGAAUGCUUUUGUUUCCUAA,3.12
AGCCGGGACCGUGCCAUUGUACUCCAGCCUGGGUGACAGAGCGAGAUUCCGUCUCAAAAAAAAAAAAAAAAAGCCCACCUGAAAGCCUGUCUCUUUCCACUUUGUUGGCC,0.695
GUUCAUGUGUUGAAUUUGUAAAUAUAAUUUGCAACCAAAUGAAGUAUUUAUUUUUAAAAAGAAAAGGUGGAGGAACCAAUAUCAACUUGUACAUAAUGAAAAUAUGCGUG,0.767
AAGAGUGAAUUUCUGUGGAUUUUACUGGUCCCAGCUUUAGGUUCUUUACGACACUAACAGGACUGCAUAGAGGCUUUUUCAGCAUUACUGUAUUGUCUCCGGCCACACUG,0.275
UGAGUCCUUGUCUUCCAUGGUCUGAGAAUUGUCAGUAUCUGGCUCCAGGCCUGACUGGGGUAAGAAACAUGCCUCCACUUUACAGAGGUAGCUAUGGGUUUGGAACACUG,0.331

# Block 4 — method: universal PBM; molecule type: double-stranded DNA, one strand shown; matrix: in vitro; concentration: not given; direction: higher = stronger binding
# Target: Sal-like protein 4, full length isoform B (SALL4, Homo sapiens, UniProt Q9UJQ4-2, residues 1-616)
# Setting: 8-mer, flanks averaged, mean of replicates
Sequence,E-score
ATGACCGC,-0.242
CCTCGTGA,0.00392
ATGAGGGC,-0.0863
ATGACACG,0.0915
ACTACCTG,-0.123
CAACCTCG,-0.0786
ACATCACG,0.0409
CATAGTCC,0.0561

# Single results of other studies — cell line: HEK-293T; observed: pseudovirus infection; organism: VSV pseudotyped with SARS-CoV-2 spike; concentration: 10 µM; time: 16 h; relative to: vehicle-treated
Structure (SMILES),method,GFP-positive cells
CN(C)CCc1c[nH]c2ccc(C[C@H]3COC(=O)N3)cc12,FDA-approved drug library screen,87.8%
O=C(O[C@H]1C[N+]2(CCCOc3ccccc3)CCC1CC2)C(O)(c1cccs1)c1cccs1,,84.1%

# Some of these lines once more (block 3):
Sequence,RBNS enrichment (R)
UAAAAUCAUUACAAUAAAAACCCAAAUUGGAACUAUCUCCUCCCUUUACCCCUUUCCCUUAAUUCCUAUUCUGAUGACACUUUGGACAUGAAUUCAAGGGGCAGAUGAAU,0.457
UGGGAAAAGACCAGGGCUUUUCCCAGGAAUAUCCCAAACUUCGGAAACAAGUUAUUCUCUUCACUCCCAAUAACUAAUGCUAAGAAAUGCUGAAAAUCAAAGUAAAAAAU,0.706
UUGGAAUGAAAAUACUUCUUGCACUUAAACACUGCACAUGCCGUACUUUGAGGUUAGUCUGAAUCUUGAACUUUAAUACCAAAUUAAUUUUGAAUGCUUUUGUUUCCUAA,3.12
AGCCGGGACCGUGCCAUUGUACUCCAGCCUGGGUGACAGAGCGAGAUUCCGUCUCAAAAAAAAAAAAAAAAAGCCCACCUGAAAGCCUGUCUCUUUCCACUUUGUUGGCC,0.695
GUUCAUGUGUUGAAUUUGUAAAUAUAAUUUGCAACCAAAUGAAGUAUUUAUUUUUAAAAAGAAAAGGUGGAGGAACCAAUAUCAACUUGUACAUAAUGAAAAUAUGCGUG,0.767
AAGAGUGAAUUUCUGUGGAUUUUACUGGUCCCAGCUUUAGGUUCUUUACGACACUAACAGGACUGCAUAGAGGCUUUUUCAGCAUUACUGUAUUGUCUCCGGCCACACUG,0.275
